Results from different studies.
Lines come from different studies, so protocols differ. ± gives the spread as reported.

SMILES | test system | setting | Cmax
N=C(N)NCCC[C@@H]1NC(=O)[C@H](Cc2c[nH]c3ccccc23)NC(=O)[C@@H](CC2CCCCC2)NC(=O)[C@@H]2CCCN2C(=O)[C@@H](NC(=O)CCc2ccccc2)CCCNC1=O | C57BL/6J mice, brain | oral, 1 mg/kg | 154 ng/g
COc1cc(C)c(Cc2ccc(O)cc2)cc1[C@@H]1S[C@H](CO)[C@@H](O)[C@H](O)[C@H]1O | Japanese T2DM patients, plasma | 2.5 mg luseogliflozin, day 7, once daily | 6.64 ± 0.776 ng/mL
Cn1c(=O)oc2ccc(-c3ccc(CC(C#N)NC(=O)C4CNCCCO4)c(F)c3)cc21 (centres unmarked) | human volunteers, plasma | 80 mg single dose, fasted, geometric mean | 823 ng/mL
CCc1c2c(nc3ccc(O)cc13)-c1cc3c(c(=O)n1C2)COC(=O)[C@]3(O)CC | human patients, plasma | intravenous, 133 mg/m^2 of parent drug | 310 ng/mL
CC1=C(/C=C/C(=O)N2CCN(C(N)=O)CC2)C(C)(C)CCC1 | male mice, retina | oral, 120 mg/kg | 94.2 nmol/g
Cc1ccc(OCC(=O)N(Cc2cccs2)c2ccn[nH]2)cc1 | male Sprague-Dawley rat, plasma | oral, 30 mg/kg, single dose | 6.22 ng/mL
CC(C)(C)ONc1nc(Nc2ccnc(C(F)(F)F)c2)nc(-c2cccc(C(F)(F)F)n2)n1 | female Balb/cA nude mice xenograft, tumour | oral, 18.05 mg/kg | 10100 ng/g
CSCOC1C(=O)C2(C)C(OCSC)CC3OCC3(OC(C)=O)C2C(OC(=O)c2ccccc2)C2(O)CC(OC(=O)C(O)C(C=C(C)C)NC(=O)OC(C)(C)C)C(C)=C1C2(C)C (centres unmarked) | male Sprague-Dawley rat, plasma | intravenous, 2 mg/kg | 218 ng/mL

A few entries again:
SMILES | test system | setting | Cmax
COc1cc(C)c(Cc2ccc(O)cc2)cc1[C@@H]1S[C@H](CO)[C@@H](O)[C@H](O)[C@H]1O | Japanese T2DM patients, plasma | 2.5 mg luseogliflozin, day 7, once daily | 6.64 ± 0.776 ng/mL
